Experimental data from different studies.
Compare with care: the assays were run in different laboratories. Values joined by “and” are separate records of one study, mostly repeats; a detail may differ. ± marks the error that the study gave.
CASP7: Caspase-7 (CASP7, Homo sapiens, UniProt P55210)
Chain of UniProt P55210 (whole entry, looked up): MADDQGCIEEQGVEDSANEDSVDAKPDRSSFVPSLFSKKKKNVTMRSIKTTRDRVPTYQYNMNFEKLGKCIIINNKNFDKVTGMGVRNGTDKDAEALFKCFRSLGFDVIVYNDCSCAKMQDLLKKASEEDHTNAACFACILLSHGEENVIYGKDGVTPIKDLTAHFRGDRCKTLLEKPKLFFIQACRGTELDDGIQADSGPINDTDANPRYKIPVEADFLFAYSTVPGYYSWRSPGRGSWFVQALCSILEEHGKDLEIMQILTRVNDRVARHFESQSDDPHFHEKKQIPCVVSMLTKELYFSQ
Chain of UniProt Q13148 (whole entry, looked up): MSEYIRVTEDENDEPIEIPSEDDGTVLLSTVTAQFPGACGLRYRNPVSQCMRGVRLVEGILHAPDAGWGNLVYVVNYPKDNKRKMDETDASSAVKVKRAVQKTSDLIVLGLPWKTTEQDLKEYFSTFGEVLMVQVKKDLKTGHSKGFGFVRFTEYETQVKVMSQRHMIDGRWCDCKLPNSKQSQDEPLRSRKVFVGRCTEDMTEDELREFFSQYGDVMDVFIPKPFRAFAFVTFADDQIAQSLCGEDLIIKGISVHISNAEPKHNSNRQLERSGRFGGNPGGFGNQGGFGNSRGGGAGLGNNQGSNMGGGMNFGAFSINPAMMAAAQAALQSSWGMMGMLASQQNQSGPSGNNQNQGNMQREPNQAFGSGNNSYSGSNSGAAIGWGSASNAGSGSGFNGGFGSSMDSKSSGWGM
Chain of UniProt Q00987 (whole entry, unmodified, looked up): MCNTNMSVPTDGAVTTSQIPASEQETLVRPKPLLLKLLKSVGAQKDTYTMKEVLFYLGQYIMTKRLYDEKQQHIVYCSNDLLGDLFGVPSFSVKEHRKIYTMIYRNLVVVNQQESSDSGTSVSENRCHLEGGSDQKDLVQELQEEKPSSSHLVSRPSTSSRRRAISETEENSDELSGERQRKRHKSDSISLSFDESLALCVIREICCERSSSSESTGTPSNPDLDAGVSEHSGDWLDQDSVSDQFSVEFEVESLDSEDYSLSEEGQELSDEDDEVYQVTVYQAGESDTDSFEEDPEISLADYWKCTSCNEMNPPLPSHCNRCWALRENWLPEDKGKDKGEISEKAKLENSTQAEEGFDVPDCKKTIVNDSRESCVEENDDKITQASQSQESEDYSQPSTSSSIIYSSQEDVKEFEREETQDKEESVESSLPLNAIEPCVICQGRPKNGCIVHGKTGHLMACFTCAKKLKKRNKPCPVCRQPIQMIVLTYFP
Chain of UniProt P31944 (whole entry, looked up): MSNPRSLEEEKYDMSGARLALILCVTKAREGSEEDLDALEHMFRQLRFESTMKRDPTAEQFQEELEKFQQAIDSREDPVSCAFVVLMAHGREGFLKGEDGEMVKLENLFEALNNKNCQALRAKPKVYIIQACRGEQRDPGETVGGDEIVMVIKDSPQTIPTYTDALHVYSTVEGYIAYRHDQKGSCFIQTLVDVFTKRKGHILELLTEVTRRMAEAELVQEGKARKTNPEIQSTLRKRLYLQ
Chain of UniProt P02716 (whole entry, unmodified, looked up): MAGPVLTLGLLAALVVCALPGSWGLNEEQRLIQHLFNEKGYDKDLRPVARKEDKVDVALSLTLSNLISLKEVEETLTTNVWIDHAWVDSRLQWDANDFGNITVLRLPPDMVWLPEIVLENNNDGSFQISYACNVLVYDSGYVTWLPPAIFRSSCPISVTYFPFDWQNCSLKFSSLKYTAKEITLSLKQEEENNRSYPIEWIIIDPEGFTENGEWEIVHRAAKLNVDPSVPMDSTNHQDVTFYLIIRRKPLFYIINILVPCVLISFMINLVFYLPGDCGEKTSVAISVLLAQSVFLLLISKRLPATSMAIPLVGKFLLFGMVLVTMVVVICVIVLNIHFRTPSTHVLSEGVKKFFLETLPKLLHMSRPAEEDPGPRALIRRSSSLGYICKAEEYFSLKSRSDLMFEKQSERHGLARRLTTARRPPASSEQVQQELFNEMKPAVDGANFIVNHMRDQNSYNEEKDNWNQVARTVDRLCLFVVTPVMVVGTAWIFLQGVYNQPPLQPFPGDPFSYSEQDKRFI
Chain of UniProt P50990 (whole entry, looked up): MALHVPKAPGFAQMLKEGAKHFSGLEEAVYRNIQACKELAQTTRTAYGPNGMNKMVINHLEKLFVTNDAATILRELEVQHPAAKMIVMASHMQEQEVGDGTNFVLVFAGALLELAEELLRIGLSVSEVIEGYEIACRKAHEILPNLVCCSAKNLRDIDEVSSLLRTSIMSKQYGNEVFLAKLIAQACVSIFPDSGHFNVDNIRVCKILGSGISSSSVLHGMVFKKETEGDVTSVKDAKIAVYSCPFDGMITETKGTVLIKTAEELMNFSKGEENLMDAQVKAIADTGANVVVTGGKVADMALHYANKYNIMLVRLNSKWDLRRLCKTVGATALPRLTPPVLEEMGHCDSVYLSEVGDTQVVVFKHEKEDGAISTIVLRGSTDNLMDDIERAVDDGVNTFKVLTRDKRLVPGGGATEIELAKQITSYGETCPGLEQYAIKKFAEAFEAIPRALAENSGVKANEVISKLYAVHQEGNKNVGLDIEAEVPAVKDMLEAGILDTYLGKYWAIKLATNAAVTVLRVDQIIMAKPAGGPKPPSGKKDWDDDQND
Chain of UniProt Q9NQR4 (whole entry, looked up): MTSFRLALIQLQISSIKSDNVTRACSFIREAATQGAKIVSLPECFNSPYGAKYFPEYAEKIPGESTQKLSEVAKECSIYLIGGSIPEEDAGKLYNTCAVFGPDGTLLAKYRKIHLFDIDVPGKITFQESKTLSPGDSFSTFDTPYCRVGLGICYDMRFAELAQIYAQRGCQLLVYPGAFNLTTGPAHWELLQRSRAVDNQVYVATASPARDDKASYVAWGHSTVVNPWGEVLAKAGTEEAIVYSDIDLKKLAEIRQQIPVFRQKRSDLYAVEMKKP
Chain of UniProt P04756 (whole entry, unmodified, looked up): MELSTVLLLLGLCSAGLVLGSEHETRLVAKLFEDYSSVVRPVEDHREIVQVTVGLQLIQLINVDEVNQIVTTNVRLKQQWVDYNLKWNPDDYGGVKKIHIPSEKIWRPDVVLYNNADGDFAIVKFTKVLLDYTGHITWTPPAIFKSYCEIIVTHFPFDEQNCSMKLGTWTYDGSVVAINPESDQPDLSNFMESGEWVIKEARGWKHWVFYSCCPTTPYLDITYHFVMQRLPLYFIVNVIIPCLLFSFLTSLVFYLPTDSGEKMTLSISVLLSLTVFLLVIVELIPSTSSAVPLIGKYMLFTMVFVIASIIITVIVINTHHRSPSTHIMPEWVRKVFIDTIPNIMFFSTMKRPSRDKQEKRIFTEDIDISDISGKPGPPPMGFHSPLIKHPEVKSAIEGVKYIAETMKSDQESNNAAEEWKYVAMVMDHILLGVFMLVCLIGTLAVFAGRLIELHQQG
Chain of UniProt P20782 (whole entry, unmodified, looked up): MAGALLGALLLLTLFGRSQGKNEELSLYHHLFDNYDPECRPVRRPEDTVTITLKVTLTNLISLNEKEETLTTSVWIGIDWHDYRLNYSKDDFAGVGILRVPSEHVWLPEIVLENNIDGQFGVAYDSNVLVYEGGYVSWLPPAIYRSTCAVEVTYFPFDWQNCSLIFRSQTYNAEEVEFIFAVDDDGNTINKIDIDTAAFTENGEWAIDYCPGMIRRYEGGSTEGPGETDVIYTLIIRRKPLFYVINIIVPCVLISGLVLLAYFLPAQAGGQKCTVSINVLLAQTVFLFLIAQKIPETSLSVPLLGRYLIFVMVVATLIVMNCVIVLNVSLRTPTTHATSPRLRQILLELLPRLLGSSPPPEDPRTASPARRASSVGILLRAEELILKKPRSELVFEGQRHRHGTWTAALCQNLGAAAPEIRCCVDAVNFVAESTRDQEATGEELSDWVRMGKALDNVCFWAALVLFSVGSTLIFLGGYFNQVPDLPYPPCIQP
Chain of UniProt Q8R146 (whole entry, looked up): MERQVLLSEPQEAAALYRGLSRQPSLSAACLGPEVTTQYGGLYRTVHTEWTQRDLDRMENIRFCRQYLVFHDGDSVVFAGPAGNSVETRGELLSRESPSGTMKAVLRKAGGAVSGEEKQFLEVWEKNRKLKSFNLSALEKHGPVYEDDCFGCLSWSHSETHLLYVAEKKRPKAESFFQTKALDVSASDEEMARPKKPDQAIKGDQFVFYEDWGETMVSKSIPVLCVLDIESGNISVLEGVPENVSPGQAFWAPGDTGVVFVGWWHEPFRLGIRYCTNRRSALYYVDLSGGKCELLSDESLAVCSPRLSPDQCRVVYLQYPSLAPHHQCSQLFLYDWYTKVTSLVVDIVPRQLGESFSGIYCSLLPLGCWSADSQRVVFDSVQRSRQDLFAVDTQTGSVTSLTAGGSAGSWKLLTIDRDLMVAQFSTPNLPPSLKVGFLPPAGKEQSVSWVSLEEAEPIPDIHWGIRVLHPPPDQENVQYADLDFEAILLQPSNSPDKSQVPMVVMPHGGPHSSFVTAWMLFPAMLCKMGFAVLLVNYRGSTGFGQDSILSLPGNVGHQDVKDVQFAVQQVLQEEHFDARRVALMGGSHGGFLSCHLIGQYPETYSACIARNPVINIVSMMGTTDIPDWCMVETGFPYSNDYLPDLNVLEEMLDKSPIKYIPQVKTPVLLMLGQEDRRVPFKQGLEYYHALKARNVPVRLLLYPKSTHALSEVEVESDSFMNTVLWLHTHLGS

SMILES | target | test | test system | conditions | how to read | endpoint | value
CCCCCC=CC=C1C(=O)C=CC1CC=CCCCC(=O)O (centres unmarked) | T-complex protein 1 subunit theta (CCT8, Homo sapiens, UniProt P50990) | competitive isoTOP-ABPP | proteome, soluble, MDA-MB-231 | 100 µM, 60 min, together with: iodoacetamide probe | reference: DMSO over compound-treated, higher = stronger cysteine blockade | isoTOP-ABPP competition ratio | 7.6
O=C(Nc1ccc(CNc2ncccn2)cc1)c1cc(-c2ccccc2)n(-c2ccccc2)n1 | Genome polyprotein, NS2B-NS3 protease (dengue virus type 2, UniProt P29990) | reporter gene | HeLa | 12.5 µM | – | inhibition | 30 ± 12%
C[C@@H]1CN(c2cc(=O)n(C)c3ccc(C#N)nc23)[C@@H](C)CN1Cc1ccc(S(=O)(=O)n2cnc(C3CC3)n2)cc1 | Diacylglycerol kinase alpha (DGKA, Homo sapiens, UniProt P23743) | DIA global proteomics | Jurkat | 5 µM, 6 h | – | DGKα protein reduction | ~80%
O=C(O)Cc1cc2c(cc1C(=O)c1ccccc1I)OCO2 | Glutamate receptor 2 (Gria2, Rattus norvegicus, UniProt P19491) | glutamate-evoked current, whole-cell patch clamp | HEK-293T | concentration not given | reference: glutamate alone | current amplitude ratio | 2.64 ± 0.1
C/C1=C\CC/C(C)=C/CC(C)(C)/C=C/C1 | Sodium channel protein type 9 subunit alpha (SCN9A, Homo sapiens, UniProt Q15858) | whole-cell patch clamp | HEK293 | 100 µM, 5 min, prolonged-opening voltage protocol | reference: before compound | current relative to initial | 105 ± 4%
CC1CCN(c2ccc(-c3n[nH]c(=O)c4cccnc34)cc2)CC1 | human kinase panel | binding, KINOMEscan | – | 10000 nM, %Ctrl below 1 | – | number of kinases hit | 0
CCCC[C@H](NC(C)=O)C(=O)N[C@@H](CCC(=O)O)C(=O)N[C@H](C(=O)N[C@@H](CC(=O)O)C(=O)COC(=O)c1c(C)cccc1C)[C@@H](C)O | CASP7 | enzyme activity, inhibitor | – | – | – | kinact/KI | 8900 M⁻¹ s⁻¹
C[C@](C(=O)NC1CCOCC1)(c1cncnc1)N(C(=O)[C@H](F)Cl)c1ccc(OC(F)(F)Cl)cc1 | Caspase-14 (Homo sapiens, UniProt P31944) | enzyme activity, inhibitor | – | 10 µM | – | remaining activity | 99.7%
CC(=O)N[C@@H](CCC(N)=O)C(=O)N[C@@H](CC(C)C)C(=O)N1CCC[C@H]1C(=O)N[C@@H](CC(=O)O)C(=O)COC(=O)c1c(C)cccc1C | CASP7 | enzyme activity, inhibitor | – | – | – | kinact/KI | 24800 M⁻¹ s⁻¹
O=C(N1CCCC1)n1cc(-c2ccc(-c3ccccc3)cc2)nn1 | Acylamino-acid-releasing enzyme (Apeh, Mus musculus, UniProt Q8R146) | enzyme activity, inhibitor, competitive ABPP-SILAC | mouse T-cells | concentration not given, 4 h, treated in situ | reference: DMSO | activity ratio | 0.96
O=C1c2sc(-c3ccc(N4CCC(F)C4)nc3F)nc2CCN1c1cccnc1 (centres unmarked) | TAR DNA-binding protein 43, aggregated (TARDBP, Homo sapiens, UniProt Q13148) | radioligand binding | human, FTLD-TDP type B sarkosyl-insoluble extract | 102.04 nM | – | specific binding | 2.76 nM and 3.15 nM
N#CN1CC[C@H](C(=O)Nc2nc3c(s2)CN(C(=O)Cn2cc(CNC(=O)CCCC[C@@H]4SC[C@@H]5NC(=O)N[C@@H]54)nn2)CC3)C1 | Omega-amidase NIT2 (NIT2, Homo sapiens, UniProt Q9NQR4) | probe binding, affinity probe, neutravidin pull-down LC-MS/MS | HEK293T, cell lysate | 5 µM, 1 h, mean of three replicates, unit not given | higher = more pulled down | iBAQ abundance | 3.32e+08
C[N+](C)(C)CCOC(N)=O | Chrnd/Chrna1/Chrne (Mus musculus, UniProt P02716+P04756+P20782, G173A/S470W) | ligand binding, agonist, single-channel kinetics | – | chain A | reference: wild type over mutant | affinity ratio | 0.8
C[C@](O)(c1cccc(F)c1)c1cn(CSc2ccccc2)nn1 | E3 ubiquitin-protein ligase Mdm2 (MDM2, Homo sapiens, UniProt Q00987) | thermal stability, DSF | – | 30 µM | – | ΔTm | 2.91 °C

A few entries again:
SMILES | target | test | test system | conditions | how to read | endpoint | value
N#CN1CC[C@H](C(=O)Nc2nc3c(s2)CN(C(=O)Cn2cc(CNC(=O)CCCC[C@@H]4SC[C@@H]5NC(=O)N[C@@H]54)nn2)CC3)C1 | Omega-amidase NIT2 (NIT2, Homo sapiens, UniProt Q9NQR4) | probe binding, affinity probe, neutravidin pull-down LC-MS/MS | HEK293T, cell lysate | 5 µM, 1 h, mean of three replicates, unit not given | higher = more pulled down | iBAQ abundance | 3.32e+08
O=C(Nc1ccc(CNc2ncccn2)cc1)c1cc(-c2ccccc2)n(-c2ccccc2)n1 | Genome polyprotein, NS2B-NS3 protease (dengue virus type 2, UniProt P29990) | reporter gene | HeLa | 12.5 µM | – | inhibition | 30 ± 12%
